# Measurements gathered from unrelated publications.
# Each numbered part is a random draw from the data of one study; scales do not carry over between parts. Substitutions count along the parent as printed.

# Set 1 — target: CEP164, C-terminal peptide (human); method: DHFR complementation, deep sequencing; medium: yeast; reference: wild type; reading: higher = weaker binding
# Notes: single substitutions, model-inferred values
# Starting sequence: PDZK1, PDZ domain 2 (human); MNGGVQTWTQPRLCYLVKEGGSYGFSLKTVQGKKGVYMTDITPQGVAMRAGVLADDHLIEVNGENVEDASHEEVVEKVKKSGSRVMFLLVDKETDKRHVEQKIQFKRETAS; partner HNRVKVYRF
Variant,binding free energy change
H98M,-0.0801 kcal/mol
L16E,1.46 kcal/mol
T9V,0.00481 kcal/mol
Q6S,-0.0127 kcal/mol
G20L,0.522 kcal/mol

# Set 2 — method: competition protein-binding microarray; form: double-stranded DNA, one strand shown; medium: in vitro; tested at: 2 µM; together with: Cbf1 competitor, 0.05 µM; reading: higher = stronger binding
# Target: Phosphate system positive regulatory protein PHO4, full length, GST-tagged (PHO4, Saccharomyces cerevisiae, UniProt P07270, residues 1-312)
# Notes: whole 60-bp probe, lowest competitor level
# Construct (chain): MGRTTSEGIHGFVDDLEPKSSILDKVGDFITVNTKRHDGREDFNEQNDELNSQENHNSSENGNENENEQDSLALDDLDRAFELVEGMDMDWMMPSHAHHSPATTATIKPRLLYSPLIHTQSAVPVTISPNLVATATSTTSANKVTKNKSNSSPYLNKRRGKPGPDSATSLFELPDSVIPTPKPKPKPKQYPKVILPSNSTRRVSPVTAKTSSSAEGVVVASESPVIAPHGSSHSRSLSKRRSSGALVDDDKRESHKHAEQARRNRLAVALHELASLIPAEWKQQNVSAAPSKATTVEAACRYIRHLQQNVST
Oligonucleotide,fluorescence intensity [a.u.]
GCCTCTGTACAATGCCACGTTGATACGCCCAGCAGCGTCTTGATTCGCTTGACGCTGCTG,11100
CAGAATCGCATACTCCACGTGAGAACAAGAAAAAATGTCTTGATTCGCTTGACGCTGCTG,14500
AAATTACTAAGTTGTAGGGTGGGTGACGCCGTATGAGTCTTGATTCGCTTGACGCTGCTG,4080
GACCAGCACCGCCGTCACAATGAGTAATGATACCATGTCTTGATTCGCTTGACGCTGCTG,4200
TTCTTTGCCCTCTTGCTCGTGTGGATTCCTTTCCGCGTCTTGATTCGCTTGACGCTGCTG,6490
CTTCTGTAAATTTTCCACGTGTTTTGACGCGCCCCGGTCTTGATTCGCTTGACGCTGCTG,14700
CCAGTCTCTGTCTTGCGCGTGCAAATAAGTGCCGGCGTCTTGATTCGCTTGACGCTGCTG,9040
CAACGGCGCCTCGGCCACGTTGAGTGAACCTTTGGCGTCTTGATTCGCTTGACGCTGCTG,12200
CTTTCCCGATCTTGTCACACGACTTTAGCACATTTGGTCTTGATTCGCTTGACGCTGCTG,6260
TGCGCAACAACTTTCCACGTGTTTTTATGTCTAGAAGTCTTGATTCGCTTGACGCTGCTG,16600
CTAACGAAGGTTTTTCACGTGGCTTACAAGCCAAGTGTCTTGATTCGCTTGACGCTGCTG,15800
CGTCCTAGCGATTGAACGGTGGGTGCCATGAGGAAGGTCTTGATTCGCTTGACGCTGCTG,6550

# Set 3 — method: DHFR PCA, deep sequencing; medium: yeast; together with: (+)-ABA 58 µM; reference: wild-type fitted maximum; reading: higher = stronger binding
# Target: ABI1, truncated, D143A, DHFR fusion (Arabidopsis thaliana)
# Notes: methotrexate growth selection, single substitutions
# Starting sequence: PYL1, truncated, DHFR fusion (Arabidopsis thaliana); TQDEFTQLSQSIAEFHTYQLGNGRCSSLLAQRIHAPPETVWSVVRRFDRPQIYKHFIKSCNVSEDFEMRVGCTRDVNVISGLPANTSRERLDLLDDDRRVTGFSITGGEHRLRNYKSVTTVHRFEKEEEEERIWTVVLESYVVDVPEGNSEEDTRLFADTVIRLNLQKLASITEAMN; partner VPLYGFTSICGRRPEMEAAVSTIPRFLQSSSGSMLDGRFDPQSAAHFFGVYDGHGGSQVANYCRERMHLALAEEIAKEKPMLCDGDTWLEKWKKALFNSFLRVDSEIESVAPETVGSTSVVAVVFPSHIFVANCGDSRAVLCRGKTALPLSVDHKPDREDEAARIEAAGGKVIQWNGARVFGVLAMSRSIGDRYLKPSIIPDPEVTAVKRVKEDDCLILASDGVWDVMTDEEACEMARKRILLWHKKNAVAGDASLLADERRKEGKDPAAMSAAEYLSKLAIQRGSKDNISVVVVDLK
Variant,relative binding score [%]
G71V,-1.61
Y53F,62.2
I79W,85.9
C60S,50.6
A175H,80.3
K58V,58.1
F103K,-13

# Further values, each from its own experiment
Molecule,target,test,test system,setting,scale,quantity,result
"PhoQ, residues 284 288 289 292 302 303 SMMNNA","PhoP, residues 12 14 15 18 19 NQGLL (Escherichia coli, UniProt P23836)","Sort-seq, refers to: YFP reporter",E. coli,"PhoQ-PhoP variant library, together with: 10 µM Mg2+","reference: high Mg2+ state, higher = stronger signaling",fold induction,2.1

# A few entries again (set 1):
Variant,binding free energy change
H98M,-0.0801 kcal/mol
L16E,1.46 kcal/mol
